# Measured values collected from several papers.
# ± gives the spread as reported.
Substance,target or system,test,test system,conditions,how to read,endpoint,value
[Met(O)35]Aβ42,rat primary cortical neurons,LDH release,,"10 µM, 48 h",reference: medium control,viability decrease,17 ± 1%
O=P1(N(CCCl)CCCl)NCCCO1 (stereo not shown),U-87 MG,"cell growth or viability, WST-1",,"500 µM, 48 h",,viability,67.8%
CC[C@H](C)[C@H](NC(=O)[C@@H]1CCCN1C(=O)[C@@H]1CCCN1)C(=O)N[C@@H](C)C(N)=O,PC-12,"Aβ42-induced neurotoxicity, inhibitor, MTT",,"concentration not given, 6 h, 37 °C, peptide to Aβ42 1:2, added: Aβ42 2 µM",reference: untreated cells,viability,60.7%
NNc1ncc(S(=O)(=O)NC(=S)Nc2ccccc2)c(=O)[nH]1,RAW264.7,"qPCR, measured: IL-6",,"concentration not given, compound at quarter of IC50, added: LPS 1 µg/mL",reference: LPS control,mRNA level,0.131 ± 0.01 fold change
CO[C@H]1/C=C\C=C(/C)C(=O)NC2=CC(=O)C(NCCN(C)C)=C(C[C@@H](C)C[C@H](OC)[C@H](O)[C@@H](C)/C=C(\C)[C@@H]1OC(N)=O)C2=O,A549 EGFR reporter cells,EGFR-induced granule formation,,"10 µM, added: 500 nM EGF",negative means activation,inhibition,92%
COc1ccc2c(c1N)CCCC=C2c1cc(OC)c(OC)c(OC)c1,DU-145,"cell growth or viability, SRB",,48 h,,GI50,2.23 nM
CC(C)c1ccc2c(c1)CC[C@H]1[C@](C)(CN)CCC[C@]21C,1205Lu,"cell growth or viability, MTS",,24 h,,IC50,2490 nM
C=CCN1CC[C@]23c4c5ccc(O)c4O[C@@H]2/C(=N/N=C2\CC[C@@]4(O)C6Cc7ccc(O)c8c7[C@@]4(CCN6CC=C)[C@@H]2O8)CC[C@@]3(O)C1C5.Cl.Cl,HEK293 expressing MOR,"morphine-induced cAMP overshoot, HTRF cAMP",,"1 µM, added: NKH 477 25 nM",reference: morphine control,efficacy,95%
CCCCC(CC)COP(=O)(Oc1ccccc1)Oc1ccccc1 (stereo not shown),human iPSC-derived cardiomyocytes,calcium flux,,"10 µM, 30 min",,inotropic effect,positive
CCC[C@H](N)C(=O)N[C@H](C(=O)N[C@H](C(=O)N[C@@H](C)C(N)=O)[C@@H](C)CC)C(C)C,PC-12,"Aβ42-induced neurotoxicity, inhibitor, MTT",,"concentration not given, 6 h, 37 °C, peptide to Aβ42 1:2, added: Aβ42 2 µM",reference: untreated cells,viability,86.1%
CN[C@@](C)(C[18F])C(=O)O,,,"SCID mouse MDA-MB-468 xenograft, blood","30 min, post injection",,tissue uptake,1.5 ± 0.1 %ID/g
C=CCN1CC[C@]23c4c5ccc(O)c4O[C@H]2C(=O)CC[C@@]3(O)[C@H]1C5,HEK293 expressing MOR,"morphine-induced cAMP overshoot, HTRF cAMP",,"1 µM, added: NKH 477 25 nM",reference: morphine control,Emax,91%
ClC1=C(Cl)[C@]2(Cl)[C@@H]3[C@@H]4C[C@@H]([C@H]5O[C@@H]45)[C@@H]3[C@@]1(Cl)C2(Cl)Cl,human iPSC-derived cardiomyocytes,beat peak frequency,,30 min,,lowest effective concentration,3 µM
CC[C@H](C)[C@H](NC(=O)[C@H](CCCCN)NC(=O)[C@@H](NC(=O)[C@H](CCC(N)=O)NC(=O)[C@H](CCCNC(=N)N)NC(=O)[C@@H](N)CC(=O)O)[C@@H](C)CC)C(=O)N[C@@H](Cc1c[nH]c2ccccc12)C(=O)N[C@@H](Cc1ccccc1)C(=O)N[C@@H](CCC(N)=O)C(=O)N[C@@H](CC(N)=O)C(=O)N[C@@H](CCCNC(=N)N)C(=O)N[C@@H](CCCNC(=N)N)C(=O)N[C@@H](CCSC)C(=O)N[C@@H](CCCCN)C(=O)N[C@@H](Cc1c[nH]c2ccccc12)C(=O)N[C@@H](CCCCN)C(=O)N[C@@H](CCCCN)C(=O)N[C@H](C(=O)N[C@@H](C)C(=O)N[C@@H](CC(C)C)C(=O)N[C@@H](CC(=O)O)C(=O)N[C@@H](Cc1c[nH]c2ccccc12)C(=O)N[C@@H](CO)C(=O)N[C@@H](Cc1c[nH]c2ccccc12)C(=O)N[C@@H](CC(C)C)C(=O)N[C@@H](CCC(N)=O)C(=O)N[C@H](C(=O)N[C@@H](CCC(=O)O)C(=O)O)[C@@H](C)O)[C@@H](C)O,rheumatoid arthritis synovial fibroblasts,"inhibitor, proximity ligation",,"concentration not given, 30 min, added: IL-1β 1 ng/mL",,NEMO-IKK-2 interaction,inhibited
O=c1cc(-c2ccc(O)cc2)oc2cc(O)cc(O)c12,J-Lat 10.6 cells,measured: GFP-positive cells,,"10 µM, 21 days, spontaneous, after wash-out",reference: DMSO 0.1%,inhibition of latency reversal,86.7 ± 11.7%
CC(C)C[C@H](NC(=O)[C@H](Cc1ccccc1)NC(=O)c1cnccn1)B(O)O,U-266,"cell growth or viability, flow cytometry",,2.5 nM,,viability,85%
COC(=O)/C=C/c1cc(O)ccc1O,A549 EGFR reporter cells,EGFR-induced granule formation,,"10 µM, added: 500 nM EGF",negative means activation,inhibition,-24%
O=C(/C=C/c1ccc2c(c1)OCO2)NCCCc1ccccc1,Raji,"TPA-induced EBV-EA expression, inhibitor",,"100-fold molar ratio to TPA, 48 h, added: TPA 32 pmol/mL",reference: TPA control,EBV-EA positive cells,81.3 ± 2.4%
CC1(C)[C@H](C(=O)O[C@H](C#N)c2cccc(Oc3ccccc3)c2)[C@@H]1C=C(Br)Br,human iPSC-derived cardiomyocytes,beat peak frequency,,30 min,,lowest effective concentration,3 µM
Nc1ccc(O)cc1,HepG2,,,"MMP IC50, 1 h, added: FCCP 1 µM",reference: basal OCR,maximal OCR,226 ± 3.21%
[Met(O2)35]Aβ40,rat primary cortical neurons,TUNEL,,"10 µM, 48 h",,apoptotic cells,14.3 ± 0.6%
Clc1ccc(C(c2ccccc2Cl)C(Cl)Cl)cc1 (stereo not shown),HepG2,Seahorse respirometry,,"concentration not given, 1 h, dosed at MMP IC50, added: 1 µM FCCP",reference: basal,OCR,201 ± 3.25%
COC[C@@H]([C@H](O)[C@H](O)C(=O)NCC[C@H](C)c1nc(/C=C/C[C@@H]2O[C@]3(C[C@@H](O)[C@@H]2C)O[C@H]([C@H](C[C@H](O)[C@H](C)[C@H](O)[C@H](C)/C=C(C)/C(C)=C/C=C/C(C)=C\C#N)OC)[C@H](OP(=O)(O)O)C3(C)C)co1)N(C)C,COS-7 overexpressing both,,,"concentration not given, 1 h",,Cables1 binding to 14-3-3γ,increased
CC[C@H](C)[C@H](NC(=O)[C@@H](NC(=O)[C@@H](N)C(C)C)C(C)C)C(=O)NC(C)(C)C(N)=O,PC-12,"Aβ42-induced neurotoxicity, inhibitor, MTT",,"concentration not given, 6 h, 37 °C, peptide to Aβ42 1:2, added: Aβ42 2 µM",reference: untreated cells,viability,100%
CC1(C(=O)O)C2CCC(O2)C1(C)C(=O)O (stereo not shown),HEK293 expressing MOR,"morphine-induced cAMP overshoot, HTRF cAMP",,"1 µM, added: NKH 477 25 nM",reference: morphine control,Emax,86%
CC(=O)Oc1ccccc1C(=O)Nc1ncc([N+](=O)[O-])s1,HepG2,Seahorse respirometry,,"concentration not given, 1 h, dosed at MMP IC50, added: 1 µM FCCP",reference: basal,OCR,127 ± 1.38%
CC(C)=CCC[C@]1(C)C=Cc2c(O)c3c(c(CC=C(C)C)c2O1)O[C@]12C(=C[C@@H]4C[C@H]1C(C)(C)O[C@@]2(C/C=C(/C)C(=O)N[C@@H](CS)C(=O)N[C@@H](Cc1ccc(O)cc1)C(=O)NCC(=O)N[C@@H](CCCNC(=N)N)C(=O)N[C@@H](CCCCN)C(=O)N[C@@H](CCCCN)C(=O)N[C@@H](CCCNC(=N)N)C(=O)N[C@@H](CCCNC(=N)N)C(=O)N[C@@H](CCC(N)=O)C(=O)N[C@@H](CCCNC(=N)N)C(=O)N[C@@H](CCCNC(=N)N)C(=O)N[C@@H](CCCNC(=N)N)C(=O)O)C4=O)C3=O,EJ,annexin V/PI flow cytometry,,"1.0 µM, 24 h, added: 5 mM NAC pretreatment 2 h",,apoptotic cells,9 ± 1.3%
CC(C(O)c1ccc(O)cc1)N1CCC(Cc2ccccc2)CC1.CC(C(O)c1ccc(O)cc1)N1CCC(Cc2ccccc2)CC1.O=C(O)C(O)C(O)C(=O)O (stereo not shown),HEK293 expressing MOR,"morphine-induced cAMP overshoot, HTRF cAMP",,"1 µM, added: NKH 477 25 nM",reference: morphine control,efficacy,87%
N.N.[Cl][Pt][Cl],lymphosarcoma cells,trypan blue,,48 h,,GI50,6000 ± 500 nM
Oc1ccc(Cl)cc1Cc1ccccc1,HepG2,Seahorse respirometry,,"concentration not given, 1 h, dosed at MMP IC50, added: 1 µM FCCP",reference: basal,OCR,151.5 ± 0.39%
RRRRRRRRGGTTLFF,EL4,,peptide,"concentration not given, 30 min preincubation, 48 h, added: anti-CD3/anti-CD28",reference: control peptide,IL-2 production,inhibited

# Excerpt of the above:
Substance,target or system,test,test system,conditions,how to read,endpoint,value
NNc1ncc(S(=O)(=O)NC(=S)Nc2ccccc2)c(=O)[nH]1,RAW264.7,"qPCR, measured: IL-6",,"concentration not given, compound at quarter of IC50, added: LPS 1 µg/mL",reference: LPS control,mRNA level,0.131 ± 0.01 fold change
CO[C@H]1/C=C\C=C(/C)C(=O)NC2=CC(=O)C(NCCN(C)C)=C(C[C@@H](C)C[C@H](OC)[C@H](O)[C@@H](C)/C=C(\C)[C@@H]1OC(N)=O)C2=O,A549 EGFR reporter cells,EGFR-induced granule formation,,"10 µM, added: 500 nM EGF",negative means activation,inhibition,92%
